# Results gathered from unrelated publications.
# Lines come from different studies, so protocols differ. Several values in a cell are separate wells, animals, samples, runs or records. ± marks the error that the study gave.
Structure (SMILES),test,test system,setting,quantity,result
O=C(CCCCCCC(=O)Nc1ccc(CC[18F])cc1)NO,,"athymic nu/nu male mice, LNCaP xenograft, kidney","intravenous, 1 h",tissue uptake,5 ± 0.7 %ID/g
CCn1cc(C(=O)N2CCOCC2)c(=O)c2cc(NC3Cc4ccccc4C3)cnc21,,"human male, fed, plasma","oral, 900 mg twice daily, day 1, tablet, arithmetic mean",AUC(0-12h),23100 ng·h/mL
O=C(Nc1nc2cccc(-c3ccc(CN4CCS(=O)(=O)CC4)cc3)n2n1)C1CC1,item: headache,human rheumatoid arthritis patients,"oral, 150 mg once daily, 4 weeks, regardless of relatedness",treatment-emergent adverse events,0%
N#Cc1ccc2c(c1)[C@H]1CCCN(C(=O)c3ccc4[nH]cnc4c3)[C@H]1C2,,human females,"10 mg, day 7",SHBG level,28 nmol/L
CC(C)C[C@H](NC(=O)[C@@H](Cc1c[nH]c2ccccc12)NC(=O)[C@H](Cc1ccc(O)cc1)NC(=O)[C@H](CO)NC(=O)[C@H](Cc1c[nH]c2ccccc12)NC(=O)[C@H](Cc1c[nH]cn1)NC(=O)[C@@H]1CCC(=O)N1)C(=O)N[C@@H](CCCNC(=N)N)C(=O)N1CCC[C@H]1C(=O)NCC(N)=O,,"Chinese CPP children, boys","intramuscular, 22.5 mg, 12 months, day 1, month 6","patients, drug-related TEAEs",75%
Cl.[2H]C([2H])([2H])CC(=O)c1cnc(NC(=O)C2CC2)cc1Nc1cccc(-c2ncn(C([2H])([2H])[2H])n2)c1OC,geometric mean,human,"oral, 20 mg once daily, day 7, fasted, liquid, multiple dose",Vz/F,154 L
C=CC(=O)N1CCC(c2ccc(C(N)=O)c(-c3ccc(Oc4ccccc4)cc3)n2)CC1,serious adverse event Leukocytosis,patients with relapsed/refractory MCL,oral,incidence,0.9%
CCOc1c([C@H](C)n2nc(C)c3c(N)ncnc32)cc(Cl)c(F)c1[C@@H]1CNC(=O)C1,item: QRS >100 to ≤110 ms,previously treated B-cell malignancy,"oral, 10 mg once daily, baseline below thresholds",patients,0%
COc1cc(Nc2ncc3c(n2)-c2ccc(Cl)cc2C(c2c(F)cccc2OC)=NC3)ccc1C(=O)O,,"human patients, plasma","oral, 40 mg, cycle 1 day 1, added: pembrolizumab",AUC(0-12h),3750 ng·h/mL
NC1(C(=O)N[C@@H](CCO)c2ccc(Cl)cc2)CCN(c2nc[nH]c3nccc2-3)CC1,,metastatic CRPC patients,"400 mg b.i.d., any grade, treatment-related, added: enzalutamide 160 mg daily",incidence of Dyspepsia,28.6%
C[C@@H](Nc1cc(F)cc(F)c1)c1cc(C(=O)N(C)C)cc2c(=O)cc(N3CCOCC3)oc12,,patients with advanced solid tumours,"oral, 120 mg twice daily, monotherapy dose-finding, 2:5 schedule",share of patients with dose interruption,66.7%
O=S(=O)(c1ccc(-c2ccc3nccc(Nc4ccncn4)c3c2)cc1)N1CCOCC1,,female BALB/c mice,"intraperitoneal, 10 mg/kg, 0.25 h",brain concentration,50 ng/mL and 61.7 ng/mL
COc1c(N2C[C@@H]3CCCN[C@@H]3C2)c(F)cc2c(=O)c(C(=O)O)cn(C3CC3)c12,,healthy volunteers,"oral, 400 mg single dose, day 5, 0.00 h",QTcI change from baseline,-5.9 ms
CN1C(=O)[C@@H](NC(=O)c2nnc(Cc3ccccc3)[nH]2)COc2cccnc21,,"human, plasma","oral, 100 mg once daily, day 14, geometric mean",terminal half-life,6.29 h
CCNCCCn1c2c(c3cc(OC)c(OC)cc3c1=O)C(=O)c1cc3c(nc1-2)OCO3,,"male CD1 mouse, plasma","intravenous, 1 mg/kg",dose-normalized AUC(0-t),142 ng·h/mL
COc1cc2nccc(Oc3ccc(NC(=O)c4cc5c(n(-c6ccccc6)c4=O)CCCC5=O)nc3)c2cc1OC,,relapsed or refractory AML,"oral, 6 mg once daily",grade ≥3 Anaemia patients,33.3%
CO[C@H]1C[C@@H]2CC[C@@H](C)[C@@](O)(O2)C(=O)C(=O)N2CCCC[C@H]2C(=O)O[C@H]([C@H](C)C[C@@H]2CC[C@@H](OCCO)[C@H](OC)C2)CC(=O)[C@H](C)/C=C(\C)[C@@H](O)[C@@H](OC)C(=O)[C@H](C)C[C@H](C)/C=C/C=C/C=C/1C,,"human, plasma","oral, 5 mg, single dosing, added: vorolanib 100 mg",median Tmax,1 h
